# Experimental data of several laboratories.
# Every numbered part comes from another study and shows a few of its results, in no order. Several values in a cell are separate wells, animals, samples, runs or records.
# Chain of UniProt O75417 (whole entry, unmodified, looked up): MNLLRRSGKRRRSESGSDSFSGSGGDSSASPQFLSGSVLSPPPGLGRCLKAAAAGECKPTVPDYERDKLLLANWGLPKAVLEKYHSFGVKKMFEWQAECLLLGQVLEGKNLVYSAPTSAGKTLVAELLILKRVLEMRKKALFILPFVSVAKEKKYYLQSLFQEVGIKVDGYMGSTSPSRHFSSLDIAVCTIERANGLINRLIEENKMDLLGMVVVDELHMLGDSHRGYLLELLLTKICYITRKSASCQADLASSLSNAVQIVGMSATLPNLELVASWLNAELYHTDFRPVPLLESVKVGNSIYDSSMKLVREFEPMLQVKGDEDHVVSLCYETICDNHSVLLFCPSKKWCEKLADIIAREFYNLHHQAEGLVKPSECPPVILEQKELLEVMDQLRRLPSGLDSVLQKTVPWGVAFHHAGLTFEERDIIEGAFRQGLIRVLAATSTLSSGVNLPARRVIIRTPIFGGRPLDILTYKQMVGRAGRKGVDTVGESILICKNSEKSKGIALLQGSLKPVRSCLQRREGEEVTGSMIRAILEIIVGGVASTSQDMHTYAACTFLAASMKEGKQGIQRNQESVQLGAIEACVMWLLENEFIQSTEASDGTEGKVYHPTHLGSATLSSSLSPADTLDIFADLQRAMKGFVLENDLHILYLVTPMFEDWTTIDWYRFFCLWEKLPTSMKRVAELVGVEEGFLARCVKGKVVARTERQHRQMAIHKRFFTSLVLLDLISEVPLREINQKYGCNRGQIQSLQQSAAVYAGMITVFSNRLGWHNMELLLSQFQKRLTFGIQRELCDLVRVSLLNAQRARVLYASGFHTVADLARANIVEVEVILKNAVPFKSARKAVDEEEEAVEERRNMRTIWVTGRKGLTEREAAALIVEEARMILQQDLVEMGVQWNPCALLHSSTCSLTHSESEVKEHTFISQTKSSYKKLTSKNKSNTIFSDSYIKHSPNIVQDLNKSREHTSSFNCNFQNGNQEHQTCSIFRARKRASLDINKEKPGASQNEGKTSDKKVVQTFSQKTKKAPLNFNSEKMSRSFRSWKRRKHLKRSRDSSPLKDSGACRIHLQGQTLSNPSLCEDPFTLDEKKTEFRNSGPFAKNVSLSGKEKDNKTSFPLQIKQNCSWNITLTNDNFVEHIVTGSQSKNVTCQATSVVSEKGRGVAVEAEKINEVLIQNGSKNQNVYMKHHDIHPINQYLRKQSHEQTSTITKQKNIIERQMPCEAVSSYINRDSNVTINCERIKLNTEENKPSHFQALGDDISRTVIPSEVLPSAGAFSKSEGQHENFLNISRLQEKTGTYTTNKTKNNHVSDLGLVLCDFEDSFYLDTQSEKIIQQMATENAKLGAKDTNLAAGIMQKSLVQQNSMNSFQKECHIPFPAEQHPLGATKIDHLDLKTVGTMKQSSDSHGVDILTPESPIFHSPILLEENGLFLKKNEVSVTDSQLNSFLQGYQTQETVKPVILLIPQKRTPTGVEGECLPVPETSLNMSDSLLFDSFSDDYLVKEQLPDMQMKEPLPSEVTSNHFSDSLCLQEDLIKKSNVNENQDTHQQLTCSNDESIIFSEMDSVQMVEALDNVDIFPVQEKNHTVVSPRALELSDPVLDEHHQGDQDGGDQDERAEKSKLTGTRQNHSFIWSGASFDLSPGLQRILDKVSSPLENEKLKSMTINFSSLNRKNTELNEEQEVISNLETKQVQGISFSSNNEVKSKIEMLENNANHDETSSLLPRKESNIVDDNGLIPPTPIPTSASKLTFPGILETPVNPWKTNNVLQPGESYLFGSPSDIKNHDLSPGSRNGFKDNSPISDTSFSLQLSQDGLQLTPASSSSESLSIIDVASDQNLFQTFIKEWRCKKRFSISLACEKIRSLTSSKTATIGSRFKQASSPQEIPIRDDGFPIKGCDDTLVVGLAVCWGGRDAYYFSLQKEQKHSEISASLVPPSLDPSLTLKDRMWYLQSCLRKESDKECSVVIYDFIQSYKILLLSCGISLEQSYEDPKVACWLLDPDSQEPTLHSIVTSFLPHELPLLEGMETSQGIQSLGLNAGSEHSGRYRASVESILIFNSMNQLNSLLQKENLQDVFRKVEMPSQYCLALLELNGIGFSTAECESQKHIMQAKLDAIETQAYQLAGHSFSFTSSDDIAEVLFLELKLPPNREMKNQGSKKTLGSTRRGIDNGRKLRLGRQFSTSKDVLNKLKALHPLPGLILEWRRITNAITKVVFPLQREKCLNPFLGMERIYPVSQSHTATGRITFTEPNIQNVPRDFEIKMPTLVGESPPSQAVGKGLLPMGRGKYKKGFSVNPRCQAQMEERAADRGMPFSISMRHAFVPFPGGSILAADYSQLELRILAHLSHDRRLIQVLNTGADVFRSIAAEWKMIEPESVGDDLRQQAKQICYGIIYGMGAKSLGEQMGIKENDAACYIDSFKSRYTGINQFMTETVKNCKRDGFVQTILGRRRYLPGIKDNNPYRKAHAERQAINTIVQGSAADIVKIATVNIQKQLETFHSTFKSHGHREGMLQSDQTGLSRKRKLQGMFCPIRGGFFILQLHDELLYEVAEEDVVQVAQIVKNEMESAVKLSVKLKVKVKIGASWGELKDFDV
# Chain of UniProt P53667 (whole entry, looked up): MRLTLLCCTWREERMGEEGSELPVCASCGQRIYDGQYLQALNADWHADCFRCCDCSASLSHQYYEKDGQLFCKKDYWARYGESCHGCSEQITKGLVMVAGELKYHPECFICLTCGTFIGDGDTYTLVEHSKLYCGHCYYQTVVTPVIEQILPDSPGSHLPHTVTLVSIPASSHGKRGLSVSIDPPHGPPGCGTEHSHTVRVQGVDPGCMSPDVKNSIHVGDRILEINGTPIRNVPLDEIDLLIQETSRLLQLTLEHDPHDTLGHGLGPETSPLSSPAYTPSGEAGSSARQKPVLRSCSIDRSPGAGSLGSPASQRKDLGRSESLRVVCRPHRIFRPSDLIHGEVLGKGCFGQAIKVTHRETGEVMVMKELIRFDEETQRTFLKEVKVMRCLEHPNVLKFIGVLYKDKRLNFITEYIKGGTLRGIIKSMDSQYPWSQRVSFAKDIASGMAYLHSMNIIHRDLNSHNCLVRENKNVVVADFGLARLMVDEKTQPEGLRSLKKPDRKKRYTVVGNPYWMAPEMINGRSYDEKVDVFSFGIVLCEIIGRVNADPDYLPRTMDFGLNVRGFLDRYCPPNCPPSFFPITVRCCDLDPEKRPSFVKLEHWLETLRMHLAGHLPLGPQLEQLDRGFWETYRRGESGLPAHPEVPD
# Chain of UniProt O95382 (whole entry, looked up): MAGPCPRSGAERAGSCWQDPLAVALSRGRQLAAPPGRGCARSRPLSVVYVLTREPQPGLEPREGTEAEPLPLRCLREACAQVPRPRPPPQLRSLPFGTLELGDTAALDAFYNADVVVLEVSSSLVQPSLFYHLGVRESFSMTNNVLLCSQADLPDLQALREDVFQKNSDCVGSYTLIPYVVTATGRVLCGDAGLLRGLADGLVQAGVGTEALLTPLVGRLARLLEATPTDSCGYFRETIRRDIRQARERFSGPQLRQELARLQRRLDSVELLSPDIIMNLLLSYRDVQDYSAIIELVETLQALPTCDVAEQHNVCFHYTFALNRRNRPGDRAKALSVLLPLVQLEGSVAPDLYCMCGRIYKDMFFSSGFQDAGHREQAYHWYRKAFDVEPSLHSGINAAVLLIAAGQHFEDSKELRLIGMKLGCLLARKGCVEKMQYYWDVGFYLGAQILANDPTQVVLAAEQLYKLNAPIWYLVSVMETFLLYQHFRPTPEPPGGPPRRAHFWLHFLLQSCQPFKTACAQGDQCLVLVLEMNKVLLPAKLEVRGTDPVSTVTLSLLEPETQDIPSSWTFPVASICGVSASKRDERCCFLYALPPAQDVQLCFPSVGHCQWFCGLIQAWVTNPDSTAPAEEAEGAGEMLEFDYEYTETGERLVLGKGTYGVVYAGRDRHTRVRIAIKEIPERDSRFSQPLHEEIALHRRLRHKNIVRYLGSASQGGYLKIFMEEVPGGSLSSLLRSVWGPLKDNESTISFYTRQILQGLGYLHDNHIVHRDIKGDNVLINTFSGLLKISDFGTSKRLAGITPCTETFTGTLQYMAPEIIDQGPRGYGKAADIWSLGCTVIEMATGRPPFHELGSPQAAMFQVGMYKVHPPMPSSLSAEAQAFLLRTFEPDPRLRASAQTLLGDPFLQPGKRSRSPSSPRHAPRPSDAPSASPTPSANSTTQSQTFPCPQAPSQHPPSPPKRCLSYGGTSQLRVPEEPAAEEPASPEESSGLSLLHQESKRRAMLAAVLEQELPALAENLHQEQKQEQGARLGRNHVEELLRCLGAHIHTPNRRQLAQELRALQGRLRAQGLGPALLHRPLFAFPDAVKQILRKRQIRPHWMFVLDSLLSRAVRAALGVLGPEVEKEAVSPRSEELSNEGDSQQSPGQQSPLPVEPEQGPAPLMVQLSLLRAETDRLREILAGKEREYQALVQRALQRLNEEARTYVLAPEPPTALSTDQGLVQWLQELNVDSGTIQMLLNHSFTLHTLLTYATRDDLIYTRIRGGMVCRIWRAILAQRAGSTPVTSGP

# Sample 1
# Target: Myosin light chain kinase 2, skeletal/cardiac muscle (MYLK2, Homo sapiens, UniProt Q9H1R3)
# Chain of UniProt Q9H1R3 (whole entry, looked up): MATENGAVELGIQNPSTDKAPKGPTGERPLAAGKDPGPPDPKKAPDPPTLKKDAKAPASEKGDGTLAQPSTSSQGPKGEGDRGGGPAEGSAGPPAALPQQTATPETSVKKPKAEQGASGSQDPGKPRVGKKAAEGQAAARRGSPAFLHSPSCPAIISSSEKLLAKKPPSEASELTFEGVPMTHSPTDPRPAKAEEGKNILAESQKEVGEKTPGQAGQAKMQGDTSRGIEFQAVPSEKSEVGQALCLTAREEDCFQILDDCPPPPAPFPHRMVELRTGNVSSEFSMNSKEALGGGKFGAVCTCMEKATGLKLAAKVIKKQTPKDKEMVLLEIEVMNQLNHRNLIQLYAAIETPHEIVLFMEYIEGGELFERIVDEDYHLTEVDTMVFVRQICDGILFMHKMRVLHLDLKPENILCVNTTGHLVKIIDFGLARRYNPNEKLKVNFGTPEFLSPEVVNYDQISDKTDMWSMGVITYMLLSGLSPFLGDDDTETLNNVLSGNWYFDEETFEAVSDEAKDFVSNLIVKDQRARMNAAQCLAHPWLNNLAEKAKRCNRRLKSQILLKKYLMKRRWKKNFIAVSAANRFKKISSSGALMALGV
# Observed: enzyme activity
# Action: inhibitor
# Tested at: 0.5 µM
# Reference: control
SMILES,remaining activity [%]
N#C/C(=C(/N)SC1C=CC=CC1)c1cccc(C(O)c2ccncc2)c1 (stereo not drawn),101
COc1cc2c(Nc3ccc(Br)cc3F)ncnc2cc1OCC1CCN(C)CC1,97.1
O=C(O)/C=C/c1cc(Br)c(Br)c(Br)c1Br,86.8
O=C(c1ccccc1)c1ccc(N2CCOCC2)cc1O,99.1
NC(=O)c1ccc(-c2nc(-c3ccc4c(c3)OCCO4)c(-c3ccccn3)[nH]2)cc1,95.9
O=C1c2ccccc2-c2nc3nnnn3nc21,88.1
C[C@@H](N)[C@H]1CC[C@H](C(=O)Nc2ccncc2)CC1,97.1
CCCCc1c(-c2ccc(O)cc2)[nH]c2nccnc12,95.7
c1cc(-c2cnn3cc(-c4ccc(OCCN5CCCCC5)cc4)cnc23)ccn1,9.29
CCN(CC)CCCCN1c2ccccc2Oc2ccc(Cl)cc21,104
CC(C)N(CCC(=O)c1ccc2ccccc2c1)Cc1ccccc1,100
N#CC(c1ccnc(NCCc2cccnc2)n1)c1nc2ccccc2s1 (stereo not drawn),92.8
Nc1nc(Nc2ccc(S(N)(=O)=O)cc2)nn1C(=S)Nc1c(F)cccc1F,66.6
CC(C)(C)c1nc2c3cc[nH]c(=O)c3c3cc(F)ccc3c2[nH]1,67.2
CC(C)n1cnc2c(Nc3cccc(Cl)c3)nc(NCCO)nc21,96.3
O=c1c(-c2ccc(F)cc2)c(-c2ccncc2)[nH]n1-c1ccc(Cl)cc1,101
O=Nc1c(-c2c(O)[nH]c3ccccc23)[nH]c2ccccc12,41.1
NC(=O)c1cccc(-c2cc(Nc3ccc(OC(F)(F)F)cc3)ncn2)c1,97.1
O=C1NC(=O)/C(=C/c2ccc3c(c2)OC(F)(F)O3)S1,96.6
CNc1cc2c(Nc3cccc(Br)c3)ncnc2cn1,97.3

# Sample 2
# Cell line: Huh-7
# Tested at: 10 µM
# Time: 24 h
SMILES,viability [%]
CCCN1C[C@H](CSC)C[C@@H]2c3cccc4[nH]cc(c34)C[C@H]21,97.8
COc1ccc2c(c1OC)C(=O)O[C@@H]2[C@H]1c2c(cc3c(c2OC)OCO3)CCN1C,91.6
CCOC(=O)[N-]c1cn(N2CCOCC2)n[o+]1,93.9
Cc1ccc(C(=O)c2ccc(CC(=O)O)n2C)cc1,103
Nc1nc2c(ncn2COCCO)c(=O)[nH]1,107
O[C@@H](c1cc(C(F)(F)F)nc2c(C(F)(F)F)cccc12)[C@H]1CCCCN1 (racemic),91.6
COc1cc(NS(C)(=O)=O)ccc1Nc1c2ccccc2nc2ccccc12,48.3
NCCS(=O)(=O)O,105

# Sample 3
# Structure (SMILES): Cn1cc(Cl)c2c(Oc3c(F)cc(Nc4cc(Cl)nc(N)n4)cc3F)ccnc21
# Technique: competition with immobilised ligand
# Tested at: 0.1 µM
target,observed,remaining binding [%]
"NEK7 (Homo sapiens, UniProt Q8TDX7)",cell-free assay,100
"FGR (Homo sapiens, UniProt P09769)",cell-free assay,100
"LIM domain kinase 1 (LIMK1, Homo sapiens, UniProt P53667)",cell-free assay,90
"EGFR (Homo sapiens, UniProt P00533, G719C)",cell-free assay,95
"PIKFYVE (Homo sapiens, UniProt Q9Y2I7)",cell-free assay,91
"TLK2 (Homo sapiens, UniProt Q86UE8)",cell-free assay,100
"RIOK2 (Homo sapiens, UniProt Q9BVS4)",cell-free assay,100
"IKBKE (Homo sapiens, UniProt Q14164)",cell-free assay,100
"Ribosomal protein S6 kinase alpha-1, C-terminal kinase domain (RPS6KA1, Homo sapiens, UniProt Q15418)",cell-free assay,100
"NEK9 (Homo sapiens, UniProt Q8TD19)",cell-free assay,100
"DAPK2 (Homo sapiens, UniProt Q9UIK4)",cell-free assay,100
"Tyrosine-protein kinase ABL1, phosphorylated (ABL1, Homo sapiens, UniProt P00519)",cell-free assay,97
"CAMK2G (Homo sapiens, UniProt Q13555)",cell-free assay,100
"MAST1 (Homo sapiens, UniProt Q9Y2H9)",cell-free assay,100
"ACVR2B (Homo sapiens, UniProt Q13705)",binding,79
"PIK3CA (Homo sapiens, UniProt P42336, C420R)",cell-free assay,82
"Tyrosine-protein kinase ABL1, phosphorylated (ABL1, Homo sapiens, UniProt P00519, Y253F)",cell-free assay,95
"CDK16 (Homo sapiens, UniProt Q00536)",cell-free assay,100
"Ribosomal protein S6 kinase alpha-3, C-terminal kinase domain (RPS6KA3, Homo sapiens, UniProt P51812)",cell-free assay,79
"NEK10 (Homo sapiens, UniProt Q6ZWH5)",cell-free assay,66
"MAP3K4 (Homo sapiens, UniProt Q9Y6R4)",cell-free assay,100
"MAP3K6 (Homo sapiens, UniProt O95382)",cell-free assay,100
"COQ8A (Homo sapiens, UniProt Q8NI60)",cell-free assay,100
"MAPK11 (Homo sapiens, UniProt Q15759)",cell-free assay,100
"Cyclin-dependent kinase 4, with cyclin D3 (CDK4, Homo sapiens, UniProt P11802)",cell-free assay,100

# Further values, each from its own experiment
SMILES,target,observed,action,tested at,reference,endpoint,result
Nc1ncnc2c1ncn2[C@@H]1O[C@H](CO)[C@@H](O)[C@H]1O,"DNA polymerase theta, ATPase domain (POLQ, Homo sapiens, UniProt O75417)",enzyme activity,inhibitor,77 µM,untreated,remaining activity,90.6% and 102%
